Measured values collected from several papers.
“And” joins repeats or separate records; there may be more than shown. ± gives the spread as reported.

`CN1Cc2cc(Cl)ccc2-n2c(nnc2C2CCN(c3cccc([18F])n3)CC2)C1`: “total volume of distribution” 1.11 ± 0.32 mL/cm3 (PET two-tissue compartment model; rhesus monkey, thalamus; intravenous, dose not given, 80 min scan, baseline scan).
With `CC(C)[C@@H]1NC(=O)CNC(=O)[C@H](CC(N)=O)NC(=O)[C@H](CCCNC(=N)N)NC(=O)[C@H](Cc2ccc(O)cc2)NC(=O)[C@H](C(C)C)NC(=O)[C@@H](NC(=O)[C@@H](NC(=O)[C@H](CC(N)=O)NC(=O)[C@H](Cc2c[nH]c3ccccc23)NC(=O)[C@H](C)NC(=O)[C@H](Cc2ccccc2)NC(=O)CNC(=O)[C@H](CCCCN)NC(=O)[C@H](Cc2ccccc2)NC(=O)[C@H](Cc2ccccc2)NC(=O)[C@H](CCCCN)NC(=O)OCC2c3ccccc3-c3ccccc32)C(C)C)CSSC[C@@H](C(=O)N[C@@H](Cc2c[nH]cn2)C(=O)N[C@@H](CCCNC(=N)N)C(=O)N[C@@H](CCCNC(=N)N)C(=O)N[C@@H](C)C(=O)N[C@@H](CC(N)=O)C(N)=O)NC(=O)[C@H](C(C)C)NC(=O)[C@H](CCCNC(=N)N)NC1=O` the albumin was 34.8 ± 1.12 g/L (ICR mice, serum; intraperitoneal, 5 mg/kg, day 5).
`O=c1cc(-c2ccc(O)cc2)oc2c([C@@H]3OC[C@H](O)[C@H](O)[C@H]3O)c(O)c([C@@H]3O[C@H](CO)[C@@H](O)[C@H](O)[C@H]3O)c(O)c12` gave an AUC(0-inf) of 26000 ng·h/mL (rat; ip, 150 mg/kg).
`O=C1NC2(CC2)COc2ncc(F)cc2[C@H]2COCCN2c2ccn3ncc1c3n2` — result for “organ-to-body weight ratio”: 0.354 ± 0.101% (Sprague-Dawley rat, female, spleen; oral, 20 mg/kg/day, 4 weeks, end of treatment).
`CSCC[C@H](N)C(=O)N[C@@H](C)C(=O)N[C@@H](CCCNC(=N)N)C(=O)N[C@@H](CCCNC(=N)N)C(=O)N[C@@H](CC(=O)O)C(=O)N[C@@H](CCCCN)C(=O)N[C@H](C(=O)N[C@@H](CC(=O)O)C(=O)N[C@@H](Cc1ccccc1)C(=O)N[C@@H](C)C(=O)N[C@@H](CCCNC(=N)N)C(=O)N[C@@H](CCCNC(=N)N)C(=O)N[C@@H](CCCNC(=N)N)C(=O)N[C@@H](CCCNC(=N)N)C(=O)NCCCCCC(=O)NCCCCC(NC(=O)CCCCCNC(=O)[C@H](CCCNC(=N)N)NC(=O)[C@H](CCCNC(=N)N)NC(=O)[C@H](CCCNC(=N)N)NC(=O)[C@H](CCCNC(=N)N)NC(=O)[C@H](C)NC(=O)[C@H](Cc1ccccc1)NC(=O)[C@H](CC(=O)O)NC(=O)[C@@H](NC(=O)[C@H](CCCCN)NC(=O)[C@H](CC(=O)O)NC(=O)[C@H](CCCNC(=N)N)NC(=O)[C@H](CCCNC(=N)N)NC(=O)[C@H](C)NC(=O)[C@@H](N)CCSC)[C@@H](C)O)C(=O)NCCCCC(NC(=O)C(CCCCNC(=O)CCCCCNC(=O)[C@H](CCCNC(=N)N)NC(=O)[C@H](CCCNC(=N)N)NC(=O)[C@H](CCCNC(=N)N)NC(=O)[C@H](CCCNC(=N)N)NC(=O)[C@H](C)NC(=O)[C@H](Cc1ccccc1)NC(=O)[C@H](CC(=O)O)NC(=O)[C@@H](NC(=O)[C@H](CCCCN)NC(=O)[C@H](CC(=O)O)NC(=O)[C@H](CCCNC(=N)N)NC(=O)[C@H](CCCNC(=N)N)NC(=O)[C@H](C)NC(=O)[C@@H](N)CCSC)[C@@H](C)O)NC(=O)CCCCCNC(=O)[C@H](CCCNC(=N)N)NC(=O)[C@H](CCCNC(=N)N)NC(=O)[C@H](CCCNC(=N)N)NC(=O)[C@H](CCCNC(=N)N)NC(=O)[C@H](C)NC(=O)[C@H](Cc1ccccc1)NC(=O)[C@H](CC(=O)O)NC(=O)[C@@H](NC(=O)[C@H](CCCCN)NC(=O)[C@H](CC(=O)O)NC(=O)[C@H](CCCNC(=N)N)NC(=O)[C@H](CCCNC(=N)N)NC(=O)[C@H](C)NC(=O)[C@@H](N)CCSC)[C@@H](C)O)C(N)=O)[C@@H](C)O` (some centres unmarked) gave a tissue distribution of 3% and 1.28% and 0.93% (C57BL/6 mouse female, uterus; dose not given, 3 h; reference: total).
`CC(=O)CCC1C(=O)NC(C(C)C)C(=O)NC(Cc2cc(O)cc(F)c2)C(=O)N2CCCC(N2)C(=O)OC(C(C)=CC=CC(=O)N2CCCCO2)CC=CC=CC(O)C(C)C1O` (centres unmarked) gave a total bilirubin of 4.4 µM (CD-1 mice, serum; oral, 50 mg/kg repeated, day 7).
With `N=C(N)NCCC[C@@H](NC(=O)[C@H](N)Cc1c[nH]c2ccccc12)C(=O)N[C@H](CCCCN)C(=O)N[C@H](Cc1c[nH]c2ccccc12)C(=O)N[C@H](CCCNC(=N)N)C(=O)N[C@H](CCCCN)C(=O)N[C@H](Cc1c[nH]c2ccccc12)C(=O)N[C@H](CCCNC(=N)N)C(=O)N[C@H](CCCCN)C(=O)N[C@H](Cc1c[nH]c2ccccc12)C(=O)N[C@H](CCCNC(=N)N)C(=O)N[C@H](CCCCN)C(N)=O` the organ index was 4.84 (mouse, liver; intravenous, 40 mg/kg single dose, 7 days).
With `CSCC[C@H](NC(=O)CNC(=O)[C@H](CCCCN)NC(=O)[C@H](CC(C)C)NC(=O)[C@@H]1CCCN1C(=O)[C@H](CO)NC(=O)[C@H](Cc1c[nH]cn1)NC(=O)[C@H](Cc1c[nH]c2ccccc12)NC(=O)[C@H](CCCNC(=N)N)NC(=O)[C@H](CC(C)C)NC(=O)[C@H](CCCNC(=N)N)NC(=O)[C@H](Cc1c[nH]c2ccccc12)NC(=O)[C@H](CS)NC(=O)CCCCCNC(=O)CN1CCN(CC(=O)O)CCN(CC(=O)O)CCN(CC(=O)O)CC1)C(=O)O` [copper-64 labelled] the tissue uptake was 3.75 ± 0.34 %ID/g (PET; C57BL/6J mice, B16-F10 tumour, kidney; intravenous, 25 h).
`CCCCCCCCCCCCCCCC(=O)N[C@@H](CCC(=O)NCCOCCOCCC(=O)NCCOCCOCCC(=O)NCCCC[C@H](NC(=O)[C@H](CC(=O)O)NC(=O)[C@H](CC(C)C)NC(=O)[C@H](Cc1ccc(O)cc1)NC(=O)[C@H](CCCCN)NC(=O)[C@H](CO)NC(=O)[C@H](Cc1ccc(O)cc1)NC(=O)[C@H](CC(=O)O)NC(=O)[C@H](CO)NC(=O)[C@@H](NC(=O)[C@H](Cc1ccccc1)NC(=O)[C@@H](NC(=O)CNC(=O)[C@H](CCC(N)=O)NC(=O)[C@@H](CO)NC(=O)[C@@H](N)Cc1c[nH]cn1)[C@@H](C)O)[C@@H](C)O)C(=O)N[C@@H](CCCNC(=N)N)C(=O)N[C@@H](CCCNC(=N)N)C(=O)N[C@@H](C)C(=O)N[C@@H](CCC(N)=O)C(=O)N[C@@H](CC(=O)O)C(=O)N[C@@H](Cc1ccccc1)C(=O)N[C@H](C(=O)N[C@@H](CCC(N)=O)C(=O)N[C@@H](Cc1c[nH]c2ccccc12)C(=O)N[C@@H](CC(C)C)C(=O)N[C@@H](CC(C)C)C(=O)N[C@@H](CC(N)=O)C(=O)N[C@H](C(=O)NCC(=O)NCC(=O)N1CCC[C@H]1C(=O)N[C@@H](CO)C(=O)N[C@@H](CO)C(=O)NCC(=O)N[C@@H](C)C(=O)N1CCC[C@H]1C(=O)N1CCC[C@H]1C(=O)N1CCC[C@H]1C(=O)N[C@@H](CO)C(N)=O)[C@@H](C)O)C(C)C)C(=O)O` gave a creatinine of 28.2 ± 3.6 µmol/L (Sprague-Dawley rat, female; subcutaneous, 500 µg/kg once daily, 14 days).
`N#[11C]c1ccc(-c2csc(NN=C3CCCC3)n2)cc1` — result for “uptake in large intestine with contents”: 1.61 ± 0.11 %ID/g (C57BL/6 mouse, male; intravenous, 3 MBq, 15 min).
For `CCCC[C@H]1C(=O)N(C)[C@@H](CCCC)C(=O)N[C@@H](CCCNC(=O)CN2CCN(CC(=O)O)CCN(CC(=O)O)CCN(CC(=O)O)CC2)C(=O)N[C@H](C(=O)NCC(N)=O)CSCC(=O)N[C@@H](Cc2ccc(O)cc2)C(=O)N(C)[C@@H](C)C(=O)N[C@@H](CC(N)=O)C(=O)N2CCC[C@H]2C(=O)N[C@@H](Cc2c[nH]cn2)C(=O)N[C@@H](CC(C)C)C(=O)N(C)CC(=O)N[C@@H](Cc2c[nH]c3ccccc23)C(=O)N[C@@H](CO)C(=O)N[C@@H](Cc2c[nH]c3ccccc23)C(=O)N1C` [gallium-68 labelled], the tissue uptake was 5.64 ± 0.64 %ID/g (NOD/SCID mice with CHO-hPD-L1 xenograft, intestine; 60 min post injection).
Under “blood to plasma ratio”, `CC(=O)NCCCC[C@@H]1NC(=O)[C@H](Cc2c[nH]c3c(C)cccc23)NC(=O)[C@H]([C@@H](C)O)NC(=O)[C@H](CC(N)=O)NC(=O)[C@@H](NC(C)=O)C(C)(C)SSC(C)(C)[C@@H](C(=O)N[C@@H](Cc2ccc(OCCN)cc2)C(=O)N[C@@H](Cc2ccc3ccccc3c2)C(=O)NC2(C(=O)N[C@@H](CCC(=O)O)C(=O)N[C@@H](CC(N)=O)C(=O)N[C@@H](Cc3cccnc3)C(=O)N(C)CC(N)=O)CCOCC2)NC1=O` is recorded as 0.49 ± 0.04 (human, blood; 0.0013 µM, 2 h).
The blood concentration of `C=Cc1c(C)c2cc3nc(c(CC(=O)O)c4[nH]c(cc5nc(cc1[nH]2)C(C)=C5CC)c(C)c4C(=O)O)[C@@H](CCC(=O)NCCCC[C@H](NC(C)=O)C(=O)N[C@@H](Cc1ccccc1)C(=O)N[C@@H](Cc1ccccc1)C(=O)N[C@H](C(=O)N[C@@H](CC(C)C)C(=O)N[C@@H](CCCCN)C(=O)N[C@@H](CO)C(=O)NCC(=O)N[C@@H](CCC(N)=O)C(=O)N[C@@H](Cc1ccc(O)cc1)C(=O)N[C@@H](C)C(=O)N[C@@H](CO)C(=O)N[C@@H](Cc1ccc(O)cc1)C(=O)N[C@@H](Cc1c[nH]cn1)C(=O)N[C@@H](CS)C(=O)N[C@@H](Cc1c[nH]c2ccccc12)C(=O)N[C@@H](CS)C(=O)N[C@@H](Cc1c[nH]c2ccccc12)C(=O)N[C@@H](CCCNC(=N)N)C(=O)N[C@@H](CC(=O)O)C(=O)N1CCC[C@H]1C(=O)NCC(=O)N[C@@H](CCCNC(=N)N)C(=O)N[C@@H](CO)C(=O)NCC(=O)NCC(=O)N[C@@H](CO)C(=O)N[C@@H](CCCCN)C(N)=O)C(C)C)[C@@H]3C` is reported as 147 µg/mL and 137 µg/mL (mouse, blood; 2 h).
Under “blood urea nitrogen”, `C=Cc1c(C)c2cc3nc(c(CC(=O)[O-])c4[n-]c(cc5nc(cc1[n-]2)C(C)=C5CC)c(C)c4C(=O)[O-])C(CCC(=O)[O-])C3C.[Cu+2].[Na+].[Na+].[Na+]` (centres unmarked) is recorded as 19.2 ± 1.6 mg/dL (Wistar rat, female; oral, 500 mg/kg daily, 28 days).
The tissue uptake of `CC[C@H](C)[C@H](NC(=O)[C@H](CCCCN)NC(=O)CNC(=O)[C@H](CC(C)C)NC(=O)[C@H](Cc1ccccc1)NC(=O)[C@H](CCCCN)NC(=O)[C@H](CO)NC(=O)[C@H](Cc1ccccc1)NC(=O)[C@H](Cc1c[nH]c2ccccc12)NC(=O)[C@H](CCC(N)=O)NC(=O)[C@@H](NC(=O)[C@H](Cc1ccccc1)NC(=O)CCCCCNC(=O)CN1CCN(CC(=O)O)CCN(CC(=O)O)CCN(CC(=O)O)CC1)C(C)C)C(=O)N[C@@H](CCC(=O)O)C(=O)N1CCC[C@H]1C(=O)N[C@H](CC(=O)O)C(=O)N[C@H](C(=O)N[C@@H](CO)C(=O)N[C@@H](CCC(N)=O)C(=O)N[C@H](C(=O)N[C@@H](CCC(N)=O)C(=O)N[C@@H](CC(=O)O)C(=O)N1CCC[C@H]1C(=O)N[C@@H](CC(N)=O)C(=O)N[C@@H](CC(=O)O)C(=O)N[C@@H](CCC(N)=O)C(=O)N[C@@H](Cc1ccc(O)cc1)C(=O)N[C@@H](CCC(=O)O)C(=O)N1CCC[C@H]1C(=O)N[C@@H](Cc1ccccc1)C(=O)O)C(C)C)C(C)C` [copper-64 labelled] is reported as 1.29 ± 0.34 %ID/g (female mice, EMT6 tumour-bearing, blood; 2 h, uncleavable control tracer, checkpoint inhibitor-treated).
The serum ALT of `CCCCCCCCCCCCCCCC(=O)OCC(CSC[C@H](N)C(=O)N[C@@H](CO)C(=O)N[C@@H](CCCCN)C(=O)N[C@@H](CCCCN)C(=O)N[C@@H](CCCCN)C(=O)N[C@@H](CCCCN)C(=O)NCCCCCC(=O)N[C@@H](CCCCN)C(=O)N[C@@H](CC(C)C)C(=O)N[C@H](C(=O)N[C@@H](Cc1ccccc1)C(=O)N[C@@H](Cc1ccccc1)C(=O)N[C@@H](Cc1ccc2ccccc2c1)C(=O)O)C(C)C)OC(=O)CCCCCCCCCCCCCCC` (some centres unmarked) is reported as 21.3 U/L and 11.9 U/L and 12.3 U/L and 12.5 U/L and 21.6 U/L (C57BL/6J mouse, serum; intraperitoneal, dose not given).
The haemoglobin of `C=CC(=O)Nc1cccc(Cn2ncc3cnc(Nc4cnn(CCOC)c4)nc32)c1` is reported as 132 ± 6.65 g/L (Sprague-Dawley rat female, blood; oral, 180 mg/kg, day 28, 28-day subacute toxicity).

A few entries again:
With `CSCC[C@H](NC(=O)CNC(=O)[C@H](CCCCN)NC(=O)[C@H](CC(C)C)NC(=O)[C@@H]1CCCN1C(=O)[C@H](CO)NC(=O)[C@H](Cc1c[nH]cn1)NC(=O)[C@H](Cc1c[nH]c2ccccc12)NC(=O)[C@H](CCCNC(=N)N)NC(=O)[C@H](CC(C)C)NC(=O)[C@H](CCCNC(=N)N)NC(=O)[C@H](Cc1c[nH]c2ccccc12)NC(=O)[C@H](CS)NC(=O)CCCCCNC(=O)CN1CCN(CC(=O)O)CCN(CC(=O)O)CCN(CC(=O)O)CC1)C(=O)O` [copper-64 labelled] the tissue uptake was 3.75 ± 0.34 %ID/g (PET; C57BL/6J mice, B16-F10 tumour, kidney; intravenous, 25 h).
